Measured values pooled from the literature.
Lines come from different studies, so protocols differ. Numbers after ± are the reported error.
F-box only protein 22: F-box only protein 22 (Homo sapiens, UniProt Q8NEZ5)
Chain of UniProt Q8NEZ5 (whole entry, looked up): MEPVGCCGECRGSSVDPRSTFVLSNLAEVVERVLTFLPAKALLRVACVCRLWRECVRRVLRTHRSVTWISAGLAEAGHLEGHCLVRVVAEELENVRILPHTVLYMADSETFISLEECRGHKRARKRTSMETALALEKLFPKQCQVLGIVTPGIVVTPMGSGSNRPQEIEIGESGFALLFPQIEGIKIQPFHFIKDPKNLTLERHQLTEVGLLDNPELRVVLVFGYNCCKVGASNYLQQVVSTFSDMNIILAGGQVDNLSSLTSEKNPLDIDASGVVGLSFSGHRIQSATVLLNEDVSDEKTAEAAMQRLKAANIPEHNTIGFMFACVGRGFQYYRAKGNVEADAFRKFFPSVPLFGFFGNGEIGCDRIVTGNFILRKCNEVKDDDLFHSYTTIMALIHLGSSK
YWHAZ: 14-3-3 protein zeta/delta (YWHAZ, Homo sapiens, UniProt P63104)
Chain of UniProt P63104 (whole entry, looked up): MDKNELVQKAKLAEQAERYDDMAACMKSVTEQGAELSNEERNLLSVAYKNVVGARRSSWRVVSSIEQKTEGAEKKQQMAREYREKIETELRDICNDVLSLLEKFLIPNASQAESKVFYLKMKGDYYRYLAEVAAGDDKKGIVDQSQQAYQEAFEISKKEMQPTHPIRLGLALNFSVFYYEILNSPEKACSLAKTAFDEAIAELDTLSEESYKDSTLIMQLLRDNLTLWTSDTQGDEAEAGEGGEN
LRP6 E1 domain: Low-density lipoprotein receptor-related protein 6, E1 domain (LRP6, Homo sapiens, UniProt O75581)
Chain of UniProt O75581 (whole entry, looked up): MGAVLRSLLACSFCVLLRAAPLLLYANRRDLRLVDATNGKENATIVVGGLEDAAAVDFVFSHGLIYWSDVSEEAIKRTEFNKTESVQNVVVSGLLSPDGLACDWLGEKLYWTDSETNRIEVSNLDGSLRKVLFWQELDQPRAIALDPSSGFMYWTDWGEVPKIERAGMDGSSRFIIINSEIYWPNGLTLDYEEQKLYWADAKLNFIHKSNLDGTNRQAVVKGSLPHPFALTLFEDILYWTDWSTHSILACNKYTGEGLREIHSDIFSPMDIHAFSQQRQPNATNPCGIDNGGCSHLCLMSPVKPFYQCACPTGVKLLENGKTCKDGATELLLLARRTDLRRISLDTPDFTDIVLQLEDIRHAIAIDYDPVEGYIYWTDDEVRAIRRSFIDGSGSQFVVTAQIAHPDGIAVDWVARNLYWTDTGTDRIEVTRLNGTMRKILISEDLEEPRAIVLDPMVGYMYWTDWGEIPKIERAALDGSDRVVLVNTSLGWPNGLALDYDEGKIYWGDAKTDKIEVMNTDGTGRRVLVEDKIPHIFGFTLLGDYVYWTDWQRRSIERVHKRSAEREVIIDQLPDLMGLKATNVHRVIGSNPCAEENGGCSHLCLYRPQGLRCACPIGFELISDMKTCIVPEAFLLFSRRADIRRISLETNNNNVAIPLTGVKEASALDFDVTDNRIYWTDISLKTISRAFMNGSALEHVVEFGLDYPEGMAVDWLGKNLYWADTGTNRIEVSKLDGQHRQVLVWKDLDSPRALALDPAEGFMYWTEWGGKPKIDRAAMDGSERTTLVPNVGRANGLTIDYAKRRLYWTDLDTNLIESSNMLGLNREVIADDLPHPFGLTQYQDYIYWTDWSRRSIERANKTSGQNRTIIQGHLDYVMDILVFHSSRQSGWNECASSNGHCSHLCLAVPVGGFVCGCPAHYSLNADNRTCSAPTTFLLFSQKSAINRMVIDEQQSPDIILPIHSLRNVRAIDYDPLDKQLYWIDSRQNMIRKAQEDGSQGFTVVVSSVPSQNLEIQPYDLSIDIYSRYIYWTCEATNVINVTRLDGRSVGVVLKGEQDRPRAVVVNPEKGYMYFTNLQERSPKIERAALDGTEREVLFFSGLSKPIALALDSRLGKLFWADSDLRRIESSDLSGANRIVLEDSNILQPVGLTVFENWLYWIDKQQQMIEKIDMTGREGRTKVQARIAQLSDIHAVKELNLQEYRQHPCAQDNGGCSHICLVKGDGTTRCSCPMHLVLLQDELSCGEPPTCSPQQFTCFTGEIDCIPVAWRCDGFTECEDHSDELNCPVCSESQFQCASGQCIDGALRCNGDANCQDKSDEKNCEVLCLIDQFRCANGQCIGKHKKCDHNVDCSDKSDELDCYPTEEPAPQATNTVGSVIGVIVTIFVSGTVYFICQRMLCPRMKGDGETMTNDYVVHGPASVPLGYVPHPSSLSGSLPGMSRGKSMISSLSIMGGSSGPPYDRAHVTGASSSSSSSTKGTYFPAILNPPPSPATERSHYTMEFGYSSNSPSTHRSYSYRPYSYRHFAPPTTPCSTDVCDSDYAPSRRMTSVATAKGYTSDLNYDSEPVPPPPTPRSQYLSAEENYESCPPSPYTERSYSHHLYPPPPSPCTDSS
Chain of UniProt P12004 (whole entry, looked up): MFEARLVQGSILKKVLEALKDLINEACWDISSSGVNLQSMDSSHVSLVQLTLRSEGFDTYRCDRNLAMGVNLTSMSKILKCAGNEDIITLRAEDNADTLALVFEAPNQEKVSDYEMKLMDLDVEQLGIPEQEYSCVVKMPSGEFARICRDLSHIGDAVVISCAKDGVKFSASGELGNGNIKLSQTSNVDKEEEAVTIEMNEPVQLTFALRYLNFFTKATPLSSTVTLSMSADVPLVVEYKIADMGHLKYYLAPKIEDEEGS
Chain of UniProt Q15172 (whole entry, looked up): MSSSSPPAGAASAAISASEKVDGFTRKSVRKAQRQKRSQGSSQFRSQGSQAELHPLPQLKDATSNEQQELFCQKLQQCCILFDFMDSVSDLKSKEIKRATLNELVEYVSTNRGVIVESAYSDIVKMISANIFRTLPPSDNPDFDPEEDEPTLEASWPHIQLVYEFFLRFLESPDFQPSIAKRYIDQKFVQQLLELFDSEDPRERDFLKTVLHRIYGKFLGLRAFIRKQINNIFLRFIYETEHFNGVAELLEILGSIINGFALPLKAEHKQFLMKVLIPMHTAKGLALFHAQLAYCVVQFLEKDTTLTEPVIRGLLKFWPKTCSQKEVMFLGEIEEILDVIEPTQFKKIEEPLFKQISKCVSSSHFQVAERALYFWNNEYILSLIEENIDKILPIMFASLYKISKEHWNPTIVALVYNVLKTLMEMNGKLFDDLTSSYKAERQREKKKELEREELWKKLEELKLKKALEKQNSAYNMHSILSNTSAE
Chain of UniProt Q9H7M9 (whole entry, looked up): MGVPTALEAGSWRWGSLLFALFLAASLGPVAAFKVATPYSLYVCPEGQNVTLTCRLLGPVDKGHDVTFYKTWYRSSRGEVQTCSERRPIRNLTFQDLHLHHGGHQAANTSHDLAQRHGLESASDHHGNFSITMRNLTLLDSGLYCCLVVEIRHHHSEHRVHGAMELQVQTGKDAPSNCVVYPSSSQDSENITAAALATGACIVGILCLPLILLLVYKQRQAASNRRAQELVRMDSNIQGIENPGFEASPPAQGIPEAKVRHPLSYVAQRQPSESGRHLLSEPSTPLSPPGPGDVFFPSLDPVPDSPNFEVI
Chain of UniProt Q14145 (whole entry, looked up): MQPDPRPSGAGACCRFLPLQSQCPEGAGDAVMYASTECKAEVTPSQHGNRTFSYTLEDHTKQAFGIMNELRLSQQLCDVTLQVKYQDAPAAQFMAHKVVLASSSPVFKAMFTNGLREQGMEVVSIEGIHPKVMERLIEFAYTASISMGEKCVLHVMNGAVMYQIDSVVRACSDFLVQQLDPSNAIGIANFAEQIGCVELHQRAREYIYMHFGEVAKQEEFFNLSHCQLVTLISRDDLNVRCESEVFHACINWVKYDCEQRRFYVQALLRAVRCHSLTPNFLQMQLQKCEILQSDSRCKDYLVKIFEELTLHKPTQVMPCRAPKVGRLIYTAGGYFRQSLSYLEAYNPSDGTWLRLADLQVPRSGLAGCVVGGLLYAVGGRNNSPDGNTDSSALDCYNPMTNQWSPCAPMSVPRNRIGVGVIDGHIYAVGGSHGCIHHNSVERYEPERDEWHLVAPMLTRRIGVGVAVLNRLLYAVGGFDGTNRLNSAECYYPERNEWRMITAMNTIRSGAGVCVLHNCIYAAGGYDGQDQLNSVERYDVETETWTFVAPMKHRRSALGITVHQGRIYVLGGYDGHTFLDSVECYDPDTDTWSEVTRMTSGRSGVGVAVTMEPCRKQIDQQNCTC
Chain of UniProt P46937 (whole entry, looked up): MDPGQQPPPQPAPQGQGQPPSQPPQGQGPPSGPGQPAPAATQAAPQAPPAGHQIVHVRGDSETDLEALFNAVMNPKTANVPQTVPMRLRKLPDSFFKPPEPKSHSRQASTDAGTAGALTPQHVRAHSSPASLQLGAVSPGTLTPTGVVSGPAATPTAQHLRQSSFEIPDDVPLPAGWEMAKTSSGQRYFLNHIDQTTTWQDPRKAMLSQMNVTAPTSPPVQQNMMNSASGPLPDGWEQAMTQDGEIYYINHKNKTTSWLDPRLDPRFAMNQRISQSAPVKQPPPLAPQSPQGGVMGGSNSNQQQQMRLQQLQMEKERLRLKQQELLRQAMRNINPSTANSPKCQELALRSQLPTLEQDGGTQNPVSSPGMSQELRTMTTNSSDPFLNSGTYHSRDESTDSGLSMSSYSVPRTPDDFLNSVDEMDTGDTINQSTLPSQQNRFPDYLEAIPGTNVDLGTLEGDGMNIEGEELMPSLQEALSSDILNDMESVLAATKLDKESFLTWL
Chain of UniProt Q13283 (whole entry, looked up): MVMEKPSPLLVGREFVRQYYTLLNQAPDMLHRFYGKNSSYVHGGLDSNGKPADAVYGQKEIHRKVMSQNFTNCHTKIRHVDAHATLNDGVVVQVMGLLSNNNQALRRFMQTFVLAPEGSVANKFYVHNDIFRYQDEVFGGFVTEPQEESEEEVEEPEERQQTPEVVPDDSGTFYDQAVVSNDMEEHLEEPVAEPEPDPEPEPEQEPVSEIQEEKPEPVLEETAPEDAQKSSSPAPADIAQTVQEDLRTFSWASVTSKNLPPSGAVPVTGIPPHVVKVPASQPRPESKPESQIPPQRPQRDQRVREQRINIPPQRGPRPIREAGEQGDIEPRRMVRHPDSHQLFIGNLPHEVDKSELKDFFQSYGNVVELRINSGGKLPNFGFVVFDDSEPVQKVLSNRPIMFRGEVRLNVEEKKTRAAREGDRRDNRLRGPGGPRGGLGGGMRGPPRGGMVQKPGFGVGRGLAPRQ

The Kd of CC[C@H](NC(=O)[C@H](CCC(=O)O)NC(=O)[C@H](CCCNC(=N)N)NC(=O)[C@H](C)NC(=O)[C@H](Cc1c[nH]c2ccccc12)NC(=O)[C@H](CCC(=O)O)NC(=O)[C@H](CCC(=O)O)NC(=O)[C@H](CCC(=O)O)NC(C)=O)C(=O)NCC(=O)N[C@@H](C)C(=O)N[C@@H](CCC(N)=O)C(=O)N[C@@H](CC(C)C)C(=O)N[C@@H](CCCNC(=N)N)C(=O)N[C@@H](CCCNC(=N)N)C(=O)N[C@@H](C)C(=O)N[C@@H](C)C(=O)N[C@@H](CC(=O)O)C(=O)N[C@@H](CC(=O)O)C(=O)N[C@@H](CC(C)C)C(=O)N[C@@H](CC(N)=O)C(=O)N[C@@H](C)C(=O)N[C@@H](CCC(N)=O)C(=O)N[C@@H](Cc1ccc(O)cc1)C(=O)N[C@@H](CCC(=O)O)C(=O)N[C@@H](CCCNC(=N)N)C(=O)N[C@@H](CCCNC(=N)N)C(=O)N[C@@H](CCCNC(=N)N)C(N)=O is reported as 0.011 µM (Induced myeloid leukemia cell differentiation protein Mcl-1 homolog, residues 152-308 (Mus musculus, UniProt P97287); binding, SPR; 0.2% DMSO).
With CC(CO)C1CN2C(=O)[C@H](CC(=O)O)NC(=O)CC(CC3CC3)NC(=O)[C@H](CCC(=O)O)NC(=O)CNC(=O)[C@H]([C@@H](C)O)NC(=O)[C@H](CCC(=O)O)NC(=O)[C@@H]2C1(F)F (stereo partly shown) the Kd was roughly 0.007 µM (Kelch-like ECH-associated protein 1 (KEAP1, Homo sapiens, UniProt Q14145); binding, MST).
With Cn1c2cccc(=O)c-2nc2ccccc21 the Kd was 16.5 µM (Multidrug resistance operon repressor (mexR, Pseudomonas aeruginosa, UniProt P52003); binding, competitive microscale thermophoresis).
O=C1NC2(CC2)COc2ncc(F)cc2[C@H]2COCCN2c2ccn3ncc1c3n2 gave a serum sodium of 145 ± 1 mmol/L (Sprague-Dawley rat, male, serum; oral, 2.5 mg/kg/day, end of treatment, 4-week subacute toxicity).
For CC[C@H](C)[C@H](NC(=O)[C@H](CC(C)C)NC(=O)[C@H](CC(N)=O)NC(=O)[C@H](CCC(N)=O)NC(=O)[C@H](CCCNC(=N)N)NC(=O)[C@H](CCCNC(=N)N)NC(=O)[C@@H](N)CCCCN)C(=O)N[C@@H](CCCNC(=N)N)C(=O)N[C@@H](Cc1c[nH]cn1)C(=O)N[C@@H](Cc1ccccc1)C(=O)N[C@@H](Cc1ccccc1)C(=O)N[C@@H](Cc1c[nH]cn1)C(=O)N[C@@H](CO)C(=O)N[C@@H](CCCCN)C(=O)N[C@@H](CCCNC(=N)N)C(N)=O, the Kd was greater than 40 µM (Proliferating cell nuclear antigen (PCNA, Homo sapiens, UniProt P12004); binding; pH 7.4).
CC[C@H](C)[C@H](NC(=O)[C@@H]1CCCN1C(=O)[C@H](CO)NC(=O)[C@H](Cc1ccccc1)NC(=O)CNC(=O)[C@H](CO)NC(=O)[C@H](Cc1ccccc1)NC(=O)[C@H](Cc1ccccc1)NC(=O)[C@H](CO)NC(=O)[C@@H](N)[C@@H](C)O)C(=O)N[C@@H](CCC(=O)O)C(=O)N[C@@H](CCC(=O)O)C(=O)N[C@@H](CC(=O)O)C(=O)N[C@@H](C)C(=O)N[C@@H](Cc1c[nH]cn1)C(=O)O has a Kd of 14.5 µM (Serine/threonine-protein phosphatase 2A 56 kDa regulatory subunit alpha isoform (Homo sapiens, UniProt Q15172); binding, bead-based Langmuir fit; pH 7.5).
The Kd of CC(C)C[C@H](NC(=O)CNC(=O)[C@H](C)NC(=O)[C@H](CC(=O)O)NC(=O)[C@H](CC(=O)O)NC(=O)[C@H](C)NC(=O)[C@@H]1CCCN1C(=O)[C@H](C)NC(=O)CNC(=O)[C@@H]1CCCN1C(=O)[C@@H]1CCCN1C(=O)[C@@H]1CCCN1C(=O)[C@H](CCC(=O)O)NC(=O)CN)C(=O)N[C@H](C(=O)O)C(C)C is reported as 32 µM (F-box only protein 22; binding, SPR).
CC(=O)N[C@@H](CCCNC(=N)N)C(=O)N[C@H](C(=O)N1CCC[C@H]1C(=O)N[C@@H](COP(=O)(O)O)C(=O)N[C@@H](CC(C)C)C(=O)N1CCC[C@H]1C(=O)N[C@@H](C)C(=O)N1CCC[C@H]1C(c1ccccc1)c1ccccc1)[C@@H](C)O has a Kd of 3.28 µM (YWHAZ; binding, ITC).
CC(C)C[C@H](NC(=O)CNC(=O)[C@H](C)NC(=O)[C@H](CC(=O)O)NC(=O)[C@H](CC(=O)O)NC(=O)[C@H](C)NC(=O)[C@@H]1CCCN1C(=O)[C@H](CCCCN)NC(=O)CNC(=O)[C@@H]1CCCN1C(=O)[C@H](C)NC(=O)[C@@H]1CCCN1C(=O)[C@H](CCC(=O)O)NC(=O)CN)C(=O)N[C@H](C(=O)O)C(C)C has a Kd of 52 µM (F-box only protein 22; binding, SPR).
For O=C(N[C@@H]1c2ccccc2C[C@H]1N1CCCC1)c1ccc(-c2ccnc3[nH]ccc23)nc1, the Kd was 0.058 µM (Tyrosine-protein kinase JAK2, JH1 (JAK2, Homo sapiens, UniProt O60674); binding, competition with immobilised ligand).
The Kd of C[n+]1cccc(C(N)=O)c1 is reported as 0.794 µM (Nicotinamide N-methyltransferase, SAH-bound (Rattus norvegicus, UniProt A0ABK0M0V0); binding, surface plasmon resonance; 37 °C, together with: SAH).
With CC(C)C[C@H](NC(=O)[C@H](CO)NC(=O)CNC(=O)[C@H](Cc1ccccc1)NC(=O)[C@H](CC(N)=O)NC(=O)[C@H](Cc1c[nH]c2ccccc12)NC(=O)[C@H](Cc1c[nH]c2ccccc12)NC(=O)CN)C(=O)N[C@H](C(=O)N[C@@H](CO)C(=O)N1CCC[C@H]1C(=O)N[C@H](C(=O)O)[C@@H](C)O)[C@@H](C)O the Kd was 9.64 µM (V-type immunoglobulin domain-containing suppressor of T-cell activation, IgV domain (VSIR, Homo sapiens, UniProt Q9H7M9); binding, microscale thermophoresis).
For CC(C)C[C@@H]1NC(=O)[C@@H]2CSSC[C@@H](C(=O)NCC(=O)O)NC(=O)[C@H](Cc3ccccc3)NC(=O)CNC(=O)[C@H](CC(N)=O)NC(=O)[C@@H]3CCCN3C(=O)CNC(=O)[C@@H]3CSSC[C@H](NC(=O)[C@H](CCCNC(=N)N)NC(=O)[C@H](CC(N)=O)NC(=O)[C@H](Cc4c[nH]cn4)NC(=O)[C@H](CCCCN)NC(=O)[C@H](CC(C)C)NC(=O)[C@H](CCCCN)NC(=O)[C@H](Cc4c[nH]cn4)NC(=O)[C@H](CC(N)=O)NC(=O)[C@H](CO)NC(=O)[C@H](CCC(N)=O)NC(=O)[C@@H](NC(=O)CN)CSSC[C@H](NC(=O)CNC(=O)[C@H](C)NC1=O)C(=O)N[C@@H](C(C)C)C(=O)N3)C(=O)N[C@@H](CCCCN)C(=O)N[C@@H](CCC(N)=O)C(=O)N[C@@H](CC(=O)O)C(=O)N[C@@H](CO)C(=O)N[C@@H](CC(=O)O)C(=O)N2, the Kd was greater than 1 µM (LRP6 E1 domain; binding, SPR; pH 7.5).
The Kd of CC(=O)N[C@@H](CCCNC(=N)N)C(=O)N[C@H](C(=O)N1CCC[C@H]1C(=O)N[C@@H](COP(=O)(O)O)C(=O)N[C@@H](CC(C)C)C(=O)N1CCC[C@H]1C(=O)NCC(=O)N1CCC[C@H]1C(c1ccccc1)c1ccccc1)[C@@H](C)O is reported as 6.1 µM (YWHAZ; isothermal titration calorimetry; second duplicate).
For COCC[C@H](NC(=O)[C@@H](C)NC(=O)[C@@H](NC(=O)[C@@H](NC(=O)[C@@H](F)CC(C)(C)C)C(C)(C)O)[C@@H](C)c1ccccc1)C(=O)N(C)Cc1ccccc1, the Kd was 0.54 µM (Ras GTPase-activating protein-binding protein 1 (G3BP1, Homo sapiens, UniProt Q13283); binding, SPR).
C=C[C@@]1(C)CC[C@@H](C(=C)C)[C@H](c2c[nH]c3ccccc23)[C@H]1N=C=S has a Kd of 9.13 µM (Transcriptional coactivator YAP1 (YAP1, Homo sapiens, UniProt P46937); binding, BLI).
CC[C@H](C)[C@@H]1NC(=O)[C@H](Cc2c[nH]cn2)NC(=O)[C@H](CC(N)=O)NC(=O)[C@H](CO)NC(=O)[C@H](CCC(N)=O)NC(=O)[C@@H](NC(=O)CN)CSSC[C@@H]2NC(=O)CNC(=O)[C@H](C)NC(=O)[C@H](CC(C)C)NC(=O)[C@@H]3CSSC[C@@H](C(=O)NCC(=O)O)NC(=O)[C@H](C)NC(=O)CNC(=O)[C@H](CC(N)=O)NC(=O)[C@@H]4CCCN4C(=O)CNC(=O)[C@H](CSSC[C@H](NC(=O)[C@H](CCCNC(=N)N)NC(=O)[C@H](CC(N)=O)NC(=O)[C@H](Cc4c[nH]cn4)NC(=O)[C@H](CCCCN)NC(=O)[C@H](CC(C)C)NC1=O)C(=O)N[C@@H](CCCCN)C(=O)N[C@@H](CCC(N)=O)C(=O)N[C@@H](CC(=O)O)C(=O)N[C@@H](CO)C(=O)N[C@@H](CC(=O)O)C(=O)N3)NC(=O)[C@H](C(C)C)NC2=O gave a Kd of greater than 1 µM (LRP6 E1 domain; binding, SPR; pH 7.5).
For CSCC[C@H](NC=O)C(=O)N[C@@H](CCCNC(=N)N)C(=O)N[C@H](C(=O)NCC(=O)N[C@@H](CC(N)=O)C(=O)N[C@@H](C)C(=O)N[C@@H](CC(N)=O)C(=O)NCC(=O)NCC(=O)N[C@@H](CCCCNC(=S)Nc1ccc2c(c1)C(=O)OC21c2ccc(O)cc2Oc2cc(O)ccc21)C(=O)O)[C@@H](C)O, the Kd was 7.75 ± 0.48 µM (Uncharacterized protein YejA (yejA, Escherichia coli, UniProt P33913, R475A); binding, fluorescence polarisation; YejA variant R457A).
CC(C)C[C@H](NC(=O)[C@H](CCCNC(=N)N)NC(=O)[C@H](CC(C)C)NC(=O)[C@H](CO)NC(=S)Nc1ccc2c(c1)C(=O)OC21c2ccc(O)cc2Oc2cc(O)ccc21)C(=O)N[C@@H](CCCCN)C(=O)N[C@@H](CS)C(=O)NCC(=O)N[C@@H](CCP(=O)(O)O)C(=O)NCC(=O)N1CCC[C@H]1C(=O)N[C@H](C(=O)N[C@@H](Cc1c[nH]c2ccccc12)C(=O)N[C@@H](CC(C)C)C(=O)N[C@H](C(=O)N1CCC[C@H]1C(=O)N[C@@H](CCCNC(=N)N)C(=O)O)C(C)C)C(C)C has a Kd of 70.7 µM (YWHAZ; binding, fluorescence anisotropy; pH 7.5, FITC-labelled phosphopeptide titration).

Some of these lines once more:
C=C[C@@]1(C)CC[C@@H](C(=C)C)[C@H](c2c[nH]c3ccccc23)[C@H]1N=C=S has a Kd of 9.13 µM (Transcriptional coactivator YAP1 (YAP1, Homo sapiens, UniProt P46937); binding, BLI).
CC[C@H](C)[C@@H]1NC(=O)[C@H](Cc2c[nH]cn2)NC(=O)[C@H](CC(N)=O)NC(=O)[C@H](CO)NC(=O)[C@H](CCC(N)=O)NC(=O)[C@@H](NC(=O)CN)CSSC[C@@H]2NC(=O)CNC(=O)[C@H](C)NC(=O)[C@H](CC(C)C)NC(=O)[C@@H]3CSSC[C@@H](C(=O)NCC(=O)O)NC(=O)[C@H](C)NC(=O)CNC(=O)[C@H](CC(N)=O)NC(=O)[C@@H]4CCCN4C(=O)CNC(=O)[C@H](CSSC[C@H](NC(=O)[C@H](CCCNC(=N)N)NC(=O)[C@H](CC(N)=O)NC(=O)[C@H](Cc4c[nH]cn4)NC(=O)[C@H](CCCCN)NC(=O)[C@H](CC(C)C)NC1=O)C(=O)N[C@@H](CCCCN)C(=O)N[C@@H](CCC(N)=O)C(=O)N[C@@H](CC(=O)O)C(=O)N[C@@H](CO)C(=O)N[C@@H](CC(=O)O)C(=O)N3)NC(=O)[C@H](C(C)C)NC2=O gave a Kd of greater than 1 µM (LRP6 E1 domain; binding, SPR; pH 7.5).
